Published values collected from several papers.
Compare with care: the assays were run in different laboratories. “And” joins repeats or separate records; there may be more than shown.
B1: human bleomycin hydrolase; sequence looked up; chain MSSSGLNSEKVAALIQKLNSDPQFVLAQNVGTTHDLLDICLKRATVQRAQHVFQHAVPQEGKPITNQKSSGRCWIFSCLNVMRLPFMKKLNIEEFEFSQSYLFFWDKVERCYFFLSAFVDTAQRKEPEDGRLVQFLLMNPANDGGQWDMLVNIVEKYGVIPKKCFPESYTTEATRRMNDILNHKMREFCIRLRNLVHSGATKGEISATQDVMMEEIFRVVCICLGNPPETFTWEYRDKDKNYQKIGPITPLEFYREHVKPLFNMEDKICLVNDPRPQHKYNKLYTVEYLSNMVGGRKTLYNNQPIDFLKKMVAASIKDGEAVWFGCDVGKHFNSKLGLSDMNLYDHELVFGVSLKNMNKAERLTFGESLMTHAMTFTAVSEKDDQDGAFTKWRVENSWGEDHGHKGYLCMTDEWFSEYVYEVVVDRKHVPEEVLAVLEQEPIILPAWDPMGALAE
B2: human DDX3Y; sequence looked up; chain SHVVVKNDPELDQQLANLDLNSEKQSGGASTASKGRYIPPHLRNREASKGFHDKDSSGWSCSKDKDAYSSFGSRDSRGKPGYFSERGSGSRGRFDDRGRSDYDGIGNRERPGFGRFERSGHSRWCDKSVEDDWSKPLPPSERLEQELFSGGNTGINFEKYDDIPVEATGSNCPPHIENFSDIDMGEIIMGNIELTRYTRPTPVQKHAIPIIKGKRDLMACAQTGSGKTAAFLLPILSQIYTDGPGEALKAVKENGRYGRRKQYPISLVLAPTRELAVQIYEEARKFSYRSRVRPCVVYGGADIGQQIRDLERGCHLLVATPGRLVDMMERGKIGLDFCKYLVLDEADRMLDMGFEPQIRRIVEQDTMPPKGVRHTMMFSATFPKEIQMLARDFLDEYIFLAVGRVGSTSENITQKVVWVEDLDKRSFLLDILGATGSDSLTLVFVETKKGADSLEDFLYHEGYACTSIHGDRSQRDREEALHQFRSGKSPILVATAVAARGLDISNVRHVINFDLPSDIEEYVHRIGRTGRVGNLGLATSFFNEKNMNITKDLLDLLVEAKQEVPSWLENMAYEHHYKGGSRGRSKSNRFSGGFGARDYRQSSGSSSSGFGASRGSSSRSGGGGYGNSRGFGGGGYGGFYNSDGYGGNYNSQGVDWWGN

For `colistin`, the MIC was 0.78 µM (Klebsiella pneumoniae; 10145, RPMI 1640 10% FBS; 18 to 24 h, 37 °C).
For `GACATACTCT`, “log2 fold change” read -2.58 (Salmonella enterica serovar Typhimurium; RNA-seq, measured: nuoC (SL1344_2295); peptide, SL1344; 5 µM, 15 min; baseline: water control).
`Polymyxin B`: “MIC fold shift” 0.5 (Klebsiella pneumoniae; NCTC 13438; baseline: 5% CO2 over ambient air).
`TCATCCGCTG (PNA, CPP-conjugated)` — result for “bacterial load reduction”: 88.8% (Salmonella enterica serovar Typhimurium; measured: CFU; peptide, SL1344, Caenorhabditis elegans infection model, worms; 2 × MIC, 24 h; baseline: untreated).
`colistin` gave an MIC of 2 µg/mL (Pseudomonas aeruginosa; PA1120 PER-producing isolate).
`gentamicin sulfate` has an MIC of 0.5 µM (Pseudomonas aeruginosa; ATCC 27853, susceptible; 18 h, 37 °C, dark).
For `milbemycin oxime`, the OD600 was 0.853 and 0.894 and 0.709 (Saccharomyces cerevisiae; cell growth; Pdr5 deleted, Cdr1 overexpressed; 2^-6.966 µg/mL, added: fluconazole 10 µg/mL).
`polymyxin M1`: “MIC fold increase” 2 fold (Pseudomonas aeruginosa; broth microdilution; ATCC 27853; added: Survanta 10% (2.5 mg/mL phospholipid); baseline: without surfactant).
Under “MIC fold change”, `Polymyxin B` is recorded as 2 fold (Staphylococcus aureus; concentration not given, added: KCl 4.5 mM; baseline: no added salt).
Under “log2 fold change”, `CTCAATCTCT` is recorded as -1.08 (Salmonella enterica serovar Typhimurium; RNA-seq, measured: parC (SL1344_3148); peptide, SL1344; 5 µM, 15 min; baseline: water control).
Under “log2 fold change”, `B1 (human bleomycin hydrolase)` is recorded as -0.77 (PP6C (human); co-immunoprecipitation, IP-MS; CYB5R4 knockout cells; concentration not given; baseline: CYB5R4 knockout over parental).
`CTCTAACTCT` — result for “log2 fold change”: 1.05 (Salmonella enterica serovar Typhimurium; RNA-seq, measured: SL1344_0983; peptide, SL1344; 5 µM, 15 min; baseline: water control).
`aprotinin` has a cysticidal efficacy of 0% (Taenia solium; trypan blue uptake; cysts; 50 µg/mL).
`CTTTCATGCG (PNA, CPP-conjugated)`: “bacterial load reduction” 73.3% (Salmonella enterica serovar Typhimurium; measured: CFU; peptide, SL1344, Caenorhabditis elegans infection model, worms; 2 × MIC, 24 h; baseline: untreated).
`CTCATAGACT` — result for “log2 fold change”: -2.26 (Salmonella enterica serovar Typhimurium; RNA-seq, measured: cfa (SL1344_1359); peptide, SL1344; 5 µM, 15 min; baseline: water control).
With `Ivermectin` the selectivity index was 1.4 (Trypanosoma cruzi; Vero, Tulahuen, β-galactosidase-expressing; baseline: Vero TC50 over T. cruzi IC50).
The membrane depolarisation of `Polymyxin B` is reported as 729 a.u. and 532 a.u. and 578 a.u. (Staphylococcus aureus; DiSC3(5) fluorescence; concentration not given, 51 min; higher = more depolarisation).
With `Nisin` the cell length was 1.96 µm and 1.87 µm and 1.97 µm (Bacillus subtilis; bacterial cytological profiling; ATCC 6633; concentration not given).
`Polymyxin B` — result for “inhibition zone diameter”: 10 mm (Pseudomonas aeruginosa; ATCC 27853; 62.5 µg per disc, 24 h, 37 °C).
For `GCCATGCTTT (PNA, CPP-conjugated)`, “bacterial load reduction” read 97.2% (Salmonella enterica serovar Typhimurium; measured: CFU; peptide, SL1344, Caenorhabditis elegans infection model, worms; 4 × MIC, 24 h; baseline: untreated).
`CTCATTGTCT`: “log2 fold change” -2.57 (Salmonella enterica serovar Typhimurium; RNA-seq, measured: acnB (SL1344_0159); peptide, SL1344; 5 µM, 15 min; baseline: water control).
`verteporfin` gave a relative fluorescence of -48.5% (Drosophila melanogaster; food ingestion, fluorescein feeding; first instar larvae; 40 µg/mL; baseline: solvent-treated).
With `colistin` the MIC was 8 µg/mL (Escherichia coli; broth microdilution; clinical isolate RKI-No_521/16).
`CTCATACTGA`: “log2 fold change” -1.85 (Salmonella enterica serovar Typhimurium; RNA-seq, measured: yicC (SL1344_3701); peptide, SL1344; 5 µM, 15 min; baseline: water control).
For `B2 (human DDX3Y)`, “log2 fold change” read 0.0268 (PP6C (human); co-immunoprecipitation, IP-MS; CYB5R4 knockout cells; concentration not given; baseline: CYB5R4 knockout over parental).

For quick reference, copied from above:
Under “log2 fold change”, `B1 (human bleomycin hydrolase)` is recorded as -0.77 (PP6C (human); co-immunoprecipitation, IP-MS; CYB5R4 knockout cells; concentration not given; baseline: CYB5R4 knockout over parental).
`CTCTAACTCT` — result for “log2 fold change”: 1.05 (Salmonella enterica serovar Typhimurium; RNA-seq, measured: SL1344_0983; peptide, SL1344; 5 µM, 15 min; baseline: water control).
